# Measurements pooled from the literature.
# Each line is one published result; not all experiments were run side by side. No end group written: not given here.
# B1: rof 1-84 Y13A (Escherichia coli, UniProt P0AFW8); chain MNDTYQPINCDDADNLELACQHHLMLTLELKDGEKLQAKASDLVSRKNVEYLVVEAAGETRELRLDKITSFSHPEIGTVVVSES
# B2: erenumab; V domains shown; sequence looked up; VH QVQLVESGGGVVQPGRSLRLSCAASGFTFSSFGMHWVRQAPGKGLEWVAVISFDGSIKYSVDSVKGRFTISRDNSKNTLFLQMNSLRAEDTAVYYCARDRLNYYDSSGYYHYKYYGMAVWGQGTTVTVSS; VL QSVLTQPPSVSAAPGQKVTISCSGSSSNIGNNYVSWYQQLPGTAPKLLIYDNNKRPSGIPDRFSGSKSGTSTTLGITGLQTGDEADYYCGTWDSRLSAVVFGGGTKLTVL
# B3: Reg2 (Mus musculus, UniProt Q08731); sequence looked up; chain QVAEEDFPLAEKDLPSAKINCPEGANAYGSYCYYLIEDRLTWGEADLFCQNMNAGHLVSILSQAESNFVASLVKESGTTASNVWTGLHDPKSNRRWHWSSGSLFLFKSWATGAPSTANRGYCVSLTSNTAYKKWKDENCEAQYSFVCKFRA
# B4: LILRB4/rat CD4 d3+4 extracellular domain 24-238 (Mus musculus); sequence looked up; chain GHLPKPIIWAEPGSVIAAYTSVITWCQGSWEAQYYHLYKEKSVNPWDTQVPLETRNKAKFNIPSMTTSYAGIYKCYYESAAGFSEHSDAMELVMTGAYENPSLSVYPSSNVTSGVSISFSCSSSIVFGRFILIQEGKHGLSWTLDSQHQANQPSYATFVLDAVTPNHNGTFRCYGYFRNEPQVWSKPSNSLDLMISETKDQSSTPTEDGLETYQK
# B5: RTT103 1-131 R108N (Saccharomyces cerevisiae, UniProt Q05543); chain MPFSSEQFTTKLNTLEDSQESISSASKWLLLQYRDAPKVAEMWKEYMLRPSVNTRRKLLGLYLMNHVVQQAKGQKIIQFQDSFGKVAAEVLGRINQEFPRDLKKKLSNVVNILKERNIFSKQVVNDIERSL
# Sequence of UniProt P0AG30 (whole entry, looked up): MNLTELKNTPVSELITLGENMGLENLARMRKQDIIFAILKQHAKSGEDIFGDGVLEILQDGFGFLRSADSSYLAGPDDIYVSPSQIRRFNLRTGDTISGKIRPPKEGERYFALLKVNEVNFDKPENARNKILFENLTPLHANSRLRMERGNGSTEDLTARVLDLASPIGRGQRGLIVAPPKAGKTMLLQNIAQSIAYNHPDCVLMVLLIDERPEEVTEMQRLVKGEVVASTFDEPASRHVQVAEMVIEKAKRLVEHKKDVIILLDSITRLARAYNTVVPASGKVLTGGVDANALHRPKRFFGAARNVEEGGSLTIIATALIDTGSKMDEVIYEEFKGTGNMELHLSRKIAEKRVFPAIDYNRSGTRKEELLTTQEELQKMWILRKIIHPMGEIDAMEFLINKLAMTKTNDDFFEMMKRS
# Sequence of UniProt P10145 (whole entry, looked up): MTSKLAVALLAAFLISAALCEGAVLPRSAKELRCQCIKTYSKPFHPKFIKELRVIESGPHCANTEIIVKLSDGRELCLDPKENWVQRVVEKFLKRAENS
# Sequence of UniProt P01137 (whole entry, looked up): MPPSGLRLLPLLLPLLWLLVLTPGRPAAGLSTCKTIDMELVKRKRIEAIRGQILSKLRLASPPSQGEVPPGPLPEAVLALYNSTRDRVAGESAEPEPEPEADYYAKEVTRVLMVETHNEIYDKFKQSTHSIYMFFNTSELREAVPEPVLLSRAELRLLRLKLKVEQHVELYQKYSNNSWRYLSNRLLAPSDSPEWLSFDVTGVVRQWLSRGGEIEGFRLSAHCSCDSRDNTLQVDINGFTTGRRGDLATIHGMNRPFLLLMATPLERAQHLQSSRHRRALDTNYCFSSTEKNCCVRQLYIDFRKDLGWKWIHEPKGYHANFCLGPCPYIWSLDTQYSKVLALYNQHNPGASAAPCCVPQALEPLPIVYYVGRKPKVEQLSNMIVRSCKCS
# Sequence of UniProt Q01815 (whole entry, looked up): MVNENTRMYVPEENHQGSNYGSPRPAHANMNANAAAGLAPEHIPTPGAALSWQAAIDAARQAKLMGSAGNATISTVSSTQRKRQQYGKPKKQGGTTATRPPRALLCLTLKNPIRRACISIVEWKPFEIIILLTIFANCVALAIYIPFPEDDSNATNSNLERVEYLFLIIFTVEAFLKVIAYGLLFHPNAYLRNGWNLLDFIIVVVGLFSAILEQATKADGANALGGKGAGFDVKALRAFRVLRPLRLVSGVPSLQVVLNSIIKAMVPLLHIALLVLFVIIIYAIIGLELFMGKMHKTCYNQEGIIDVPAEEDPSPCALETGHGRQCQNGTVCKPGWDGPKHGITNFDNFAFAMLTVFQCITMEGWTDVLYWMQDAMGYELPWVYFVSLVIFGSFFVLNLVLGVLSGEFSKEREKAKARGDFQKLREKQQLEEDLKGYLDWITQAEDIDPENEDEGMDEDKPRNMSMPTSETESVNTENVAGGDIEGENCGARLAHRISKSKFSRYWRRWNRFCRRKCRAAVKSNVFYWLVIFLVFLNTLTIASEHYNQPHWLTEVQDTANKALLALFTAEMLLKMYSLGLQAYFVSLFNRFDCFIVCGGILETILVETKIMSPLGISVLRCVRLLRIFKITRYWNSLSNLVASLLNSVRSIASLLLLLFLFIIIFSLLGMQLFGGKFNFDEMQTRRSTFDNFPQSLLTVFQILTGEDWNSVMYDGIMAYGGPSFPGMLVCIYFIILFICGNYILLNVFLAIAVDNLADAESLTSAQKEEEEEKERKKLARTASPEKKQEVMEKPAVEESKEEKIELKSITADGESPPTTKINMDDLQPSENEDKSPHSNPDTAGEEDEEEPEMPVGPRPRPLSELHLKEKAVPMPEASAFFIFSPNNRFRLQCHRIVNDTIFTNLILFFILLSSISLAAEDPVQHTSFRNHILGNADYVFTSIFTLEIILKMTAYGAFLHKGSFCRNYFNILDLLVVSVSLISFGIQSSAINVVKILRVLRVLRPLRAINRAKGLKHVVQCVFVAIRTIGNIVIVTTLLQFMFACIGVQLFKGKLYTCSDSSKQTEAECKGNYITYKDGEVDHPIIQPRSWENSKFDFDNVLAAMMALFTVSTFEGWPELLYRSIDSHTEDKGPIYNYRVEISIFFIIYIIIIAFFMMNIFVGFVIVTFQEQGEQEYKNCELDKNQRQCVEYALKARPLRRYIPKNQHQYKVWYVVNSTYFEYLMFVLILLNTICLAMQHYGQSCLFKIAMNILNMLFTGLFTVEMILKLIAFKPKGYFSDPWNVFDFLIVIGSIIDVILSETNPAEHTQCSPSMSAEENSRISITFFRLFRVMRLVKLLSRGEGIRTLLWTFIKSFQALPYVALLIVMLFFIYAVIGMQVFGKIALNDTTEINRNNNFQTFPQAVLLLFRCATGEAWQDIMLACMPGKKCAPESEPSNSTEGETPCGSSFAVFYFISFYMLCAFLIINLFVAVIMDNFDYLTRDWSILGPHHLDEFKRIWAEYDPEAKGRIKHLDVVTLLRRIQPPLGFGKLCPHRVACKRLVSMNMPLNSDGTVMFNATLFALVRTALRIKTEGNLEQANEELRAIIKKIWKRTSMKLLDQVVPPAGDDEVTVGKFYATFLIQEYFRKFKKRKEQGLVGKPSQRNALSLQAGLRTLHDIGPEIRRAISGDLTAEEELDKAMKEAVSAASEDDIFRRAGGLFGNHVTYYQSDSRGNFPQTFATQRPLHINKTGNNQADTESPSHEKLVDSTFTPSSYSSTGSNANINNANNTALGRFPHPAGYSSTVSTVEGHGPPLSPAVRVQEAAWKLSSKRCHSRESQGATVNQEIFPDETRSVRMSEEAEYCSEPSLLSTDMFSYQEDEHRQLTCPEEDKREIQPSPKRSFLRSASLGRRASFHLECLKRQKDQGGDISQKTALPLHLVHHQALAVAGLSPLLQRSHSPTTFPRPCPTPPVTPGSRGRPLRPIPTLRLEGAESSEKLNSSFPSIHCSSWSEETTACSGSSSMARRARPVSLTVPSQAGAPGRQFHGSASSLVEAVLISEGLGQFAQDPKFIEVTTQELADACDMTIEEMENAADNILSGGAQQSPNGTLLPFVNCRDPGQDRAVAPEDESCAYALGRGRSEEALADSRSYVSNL
# Sequence of UniProt P09038 (whole entry, looked up): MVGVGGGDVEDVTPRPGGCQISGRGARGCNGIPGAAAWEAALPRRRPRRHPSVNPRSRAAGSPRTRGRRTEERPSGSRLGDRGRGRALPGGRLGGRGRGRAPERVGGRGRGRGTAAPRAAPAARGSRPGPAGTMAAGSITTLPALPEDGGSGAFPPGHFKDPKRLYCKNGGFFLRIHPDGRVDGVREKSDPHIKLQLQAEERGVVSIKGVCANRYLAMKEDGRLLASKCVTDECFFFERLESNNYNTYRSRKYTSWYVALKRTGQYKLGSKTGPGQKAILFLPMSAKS
# Sequence of UniProt Q8NHJ6 (whole entry, looked up): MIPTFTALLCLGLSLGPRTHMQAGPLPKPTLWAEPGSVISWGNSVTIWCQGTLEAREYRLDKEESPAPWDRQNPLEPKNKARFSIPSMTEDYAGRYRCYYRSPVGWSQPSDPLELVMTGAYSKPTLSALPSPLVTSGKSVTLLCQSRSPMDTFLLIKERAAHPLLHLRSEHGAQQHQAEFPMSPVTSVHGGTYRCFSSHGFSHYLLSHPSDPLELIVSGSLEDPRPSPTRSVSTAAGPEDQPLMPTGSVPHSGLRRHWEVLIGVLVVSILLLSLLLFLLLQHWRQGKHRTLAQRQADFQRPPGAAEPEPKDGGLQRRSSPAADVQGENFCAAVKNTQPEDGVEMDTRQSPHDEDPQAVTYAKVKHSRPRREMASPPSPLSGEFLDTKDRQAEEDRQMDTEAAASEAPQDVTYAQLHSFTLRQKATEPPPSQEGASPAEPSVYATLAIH
# Sequence of UniProt P0ACI0 (whole entry, looked up): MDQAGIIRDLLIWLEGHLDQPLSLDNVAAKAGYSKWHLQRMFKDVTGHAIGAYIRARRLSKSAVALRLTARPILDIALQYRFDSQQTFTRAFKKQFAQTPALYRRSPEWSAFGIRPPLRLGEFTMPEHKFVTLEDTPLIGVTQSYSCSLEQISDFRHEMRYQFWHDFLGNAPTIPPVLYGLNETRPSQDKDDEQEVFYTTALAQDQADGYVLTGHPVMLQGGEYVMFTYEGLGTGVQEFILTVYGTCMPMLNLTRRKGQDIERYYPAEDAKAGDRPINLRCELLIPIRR
# Sequence of UniProt Q61851 (whole entry, looked up): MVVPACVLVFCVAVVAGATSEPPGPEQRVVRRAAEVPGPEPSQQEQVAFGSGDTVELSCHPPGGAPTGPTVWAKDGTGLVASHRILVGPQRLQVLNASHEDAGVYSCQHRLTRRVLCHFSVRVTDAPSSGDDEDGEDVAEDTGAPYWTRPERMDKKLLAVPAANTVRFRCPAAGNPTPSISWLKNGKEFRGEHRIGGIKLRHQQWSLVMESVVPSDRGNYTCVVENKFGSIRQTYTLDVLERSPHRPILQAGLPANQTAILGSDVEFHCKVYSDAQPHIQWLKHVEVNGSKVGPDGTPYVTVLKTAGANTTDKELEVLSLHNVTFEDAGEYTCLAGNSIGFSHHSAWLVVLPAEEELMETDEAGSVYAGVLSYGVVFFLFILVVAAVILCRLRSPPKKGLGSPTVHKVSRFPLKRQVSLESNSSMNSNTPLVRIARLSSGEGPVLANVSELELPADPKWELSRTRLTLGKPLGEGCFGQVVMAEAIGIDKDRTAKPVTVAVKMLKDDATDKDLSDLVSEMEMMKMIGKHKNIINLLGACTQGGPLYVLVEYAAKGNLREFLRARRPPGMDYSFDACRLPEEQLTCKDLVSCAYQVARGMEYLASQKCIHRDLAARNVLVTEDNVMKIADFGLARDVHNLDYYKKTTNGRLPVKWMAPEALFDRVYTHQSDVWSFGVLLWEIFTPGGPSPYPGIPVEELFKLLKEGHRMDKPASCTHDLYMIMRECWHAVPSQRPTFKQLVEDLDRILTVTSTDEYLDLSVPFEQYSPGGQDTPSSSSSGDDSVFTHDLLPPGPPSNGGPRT
Molecule,target or system,test,test system,setting,scale,quantity,value
"rob (Escherichia coli, UniProt P0ACI0)","rpoD R599A (Escherichia coli, UniProt P00579)",β-galactosidase reporter,,added: fumC promoter,"reference: wild-type σ70, higher = more activation",transcription activation,59%
"CXCL8 (Homo sapiens, UniProt P10145)","CXCR3 (Homo sapiens, UniProt P49682)",label-free dynamic mass redistribution,HEK293T,very weak response,higher = stronger response,maximal response,10.2 DMR
"FGF2 (Homo sapiens, UniProt P09038)","FGFR3 isoform IIIc (unknown, UniProt Q61851)","cell proliferation, MTT",BaF3-FGFR3c,"20 nM, 48 h, added: chondroitin sulfate A 4.9 µg/mL","reference: FGF 1 with heparin, higher = more proliferation",cell proliferation,6%
VPLPAGGGTVLTKMYPRGNHWAVGHLM-NH2 (GRP mature (UniProt P07492); C-terminal amide),"GRPR R287A (Homo sapiens, UniProt P30550)",calcium mobilization,"peptide, CHO",,"reference: wild-type receptor, higher = greater loss",activity decrease,51 fold
"HSP90AB1 (Homo sapiens, UniProt P08238)",LAP of TGFB1 latency associated peptide (UniProt P01137),CAGA12-luciferase reporter,MG63,added: latent TGF-β1,"reference: IgG control, higher = more transcription",increase in TGF-β1 transcription,1.4 fold
SUV39H1 chromodomain,"histone H3 1-13, K9 methylated",reporter luciferase,HepG2,"wild-type H3-K9, in cells",,firefly luciferase signal,2.5e+08 p/s/cm^2/sr
B1 (rof 1-84 Y13A),"rho 1-419 (Escherichia coli, UniProt P0AG30)","rho termination, inhibitor",,,lower = more inhibition,terminated transcripts,90%
B2 (erenumab),CALCRL/RAMP1 on cells (Homo sapiens),"cAMP production, antagonist, Schild analysis","antibody, HEK293S",added: αCGRP,,pKB,8.64
B3 (Reg2),"Cacna1c (Mus musculus, UniProt Q01815)",AP-tagged ligand binding,beta TC3,,"reference: vector-only cells, higher = more binding",AP staining,1.4 fold
B4,"LILRB4 extracellular domain 22-259 (Homo sapiens, UniProt Q8NHJ6)",SPR,,multivalent bead assay,,response,1750 RU
"UGT1A9 (Homo sapiens, UniProt O60656)",O=C(c1ccc(OCCN2CCCCC2)cc1)c1c(-c2ccc(O)cc2)sc2cc(O)ccc12,steady-state kinetics,,"pH 7.4, 37 °C",,Km,1.93 µM
B5 (RTT103 1-131 R108N),"RPO21 CTD, two heptad repeats, phosphoserine at both Ser2",ChIP,,"ADH1 gene, in cells","reference: wild type, higher = greater reduction",reduction in recruitment,5 fold
"TPDFLMQLMNDKKLMSSLPNFSGIFNHLERLLDEEISRVRKDMYNDTLNGSTEK (Qki 14-67 C35S/Y17F (Mus musculus, UniProt Q9QYS9))",itself,CD thermal melting,,50 µM,,melting temperature,45 °C

# A few entries again:
Molecule,target or system,test,test system,setting,scale,quantity,value
"CXCL8 (Homo sapiens, UniProt P10145)","CXCR3 (Homo sapiens, UniProt P49682)",label-free dynamic mass redistribution,HEK293T,very weak response,higher = stronger response,maximal response,10.2 DMR
"rob (Escherichia coli, UniProt P0ACI0)","rpoD R599A (Escherichia coli, UniProt P00579)",β-galactosidase reporter,,added: fumC promoter,"reference: wild-type σ70, higher = more activation",transcription activation,59%
